{"data": "Measured values pooled from the literature", "note": "Compare with care: the assays were run in different laboratories. Numbers after ± are the reported error.", "sequence of UniProt P48546 (whole entry, looked up)": "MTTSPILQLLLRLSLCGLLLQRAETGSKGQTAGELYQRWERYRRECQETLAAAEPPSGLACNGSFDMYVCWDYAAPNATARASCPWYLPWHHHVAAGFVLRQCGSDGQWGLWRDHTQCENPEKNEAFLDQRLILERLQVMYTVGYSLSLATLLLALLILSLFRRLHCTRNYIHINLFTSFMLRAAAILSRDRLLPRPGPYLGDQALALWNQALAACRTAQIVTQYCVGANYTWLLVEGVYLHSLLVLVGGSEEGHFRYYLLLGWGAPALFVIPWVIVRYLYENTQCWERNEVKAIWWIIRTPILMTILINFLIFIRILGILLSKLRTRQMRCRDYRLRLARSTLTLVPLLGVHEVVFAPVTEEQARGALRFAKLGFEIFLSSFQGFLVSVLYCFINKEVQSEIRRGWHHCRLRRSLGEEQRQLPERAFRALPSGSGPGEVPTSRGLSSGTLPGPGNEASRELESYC"}
{"Structure (SMILES)": "CC[C@H](C)[C@H](NC(=O)[C@H](CCCN)NC(=O)[C@H](CC(=O)O)NC(=O)[C@H](CC(C)C)NC(=O)C(C)(CC(C)C)NC(=O)[C@@H](NC(=O)[C@H](CO)NC(=O)[C@H](Cc1ccc(O)cc1)NC(=O)[C@H](CC(=O)O)NC(=O)[C@H](CO)NC(=O)[C@@H](NC(=O)[C@H](Cc1ccccc1)NC(=O)[C@@H](NC(=O)CNC(=O)[C@H](CCC(=O)O)NC(=O)C(C)(C)NC(=O)[C@@H](N)Cc1ccc(O)cc1)[C@@H](C)O)[C@@H](C)CC)[C@@H](C)CC)C(=O)N[C@@H](Cc1c[nH]cn1)C(=O)N[C@@H](CCC(N)=O)C(=O)NC(C)(C)C(=O)N[C@@H](CC(=O)O)C(=O)N[C@@H](Cc1ccccc1)C(=O)N[C@H](C(=O)N[C@@H](CCC(=O)O)C(=O)N[C@@H](Cc1ccc(O)cc1)C(=O)N[C@@H](CCCCNC(=O)COCCOCCNC(=O)COCCOCCNC(=O)CC[C@H](NC(=O)CCCCCCCCCCCCCCCCCCC(=O)O)C(=O)O)C(=O)N[C@@H](CC(C)C)C(=O)N[C@@H](CCC(=O)O)C(=O)NCC(=O)NCC(=O)N1CCC[C@H]1C(=O)N[C@@H](CO)C(=O)N[C@@H](CO)C(=O)NCC(=O)N[C@@H](C)C(=O)N1CCC[C@H]1C(=O)N1CCC[C@H]1C(=O)N1CCC[C@H]1C(=O)N[C@@H](CO)C(N)=O)C(C)C (stereo partly shown)", "target or system": "GIPR (Homo sapiens, UniProt P48546)", "assay": "cAMP accumulation, agonist", "test system": "HEK293", "setting": "without serum albumin", "how to read": "relative to: native human GIP, fold more potent", "endpoint": "relative potency", "value": "~20 fold"}
{"Structure (SMILES)": "CC[C@H](C)[C@H](N)C(=O)N[C@@H](Cc1c[nH]c2ccccc12)C(=O)N[C@@H](CC(C)C)C(=O)N[C@H](C(=O)N[C@@H](C)C(=O)N[C@@H](CC(C)C)C(=O)N[C@@H](CCCCN)C(=O)N[C@@H](Cc1ccccc1)C(=O)N[C@@H](CC(C)C)C(=O)NCC(=O)N[C@@H](CCCCN)C(=O)N[C@@H](Cc1c[nH]cn1)C(=O)N[C@@H](C)C(=O)N[C@@H](C)C(=O)N[C@@H](CCCCN)C(=O)N[C@@H](Cc1c[nH]cn1)C(=O)N[C@@H](CCC(=O)O)C(=O)N[C@@H](C)C(=O)N[C@@H](CCCCN)C(=O)N[C@@H](CCC(N)=O)C(=O)N[C@@H](CCC(N)=O)C(=O)N[C@@H](CC(C)C)C(=O)N[C@@H](CO)C(=O)N[C@@H](CCCCN)C(=O)N[C@@H](CC(C)C)C(=O)N[C@@H](CS)C(N)=O)[C@@H](C)O", "target or system": "human red blood cells", "setting": "pH 5.5", "how to read": "relative to: Triton X-100", "endpoint": "EC50", "value": "> 100000 nM"}
{"Structure (SMILES)": "CC1=C[C@H]2O[C@@H]3[C@H](O)C[C@](C)([C@@]2(CO)[C@H](O)C1=O)[C@]31CO1", "target or system": "HK-2", "assay": "cell growth or viability, SRB", "setting": "24 h", "endpoint": "IC50", "value": "12300 nM"}
{"Structure (SMILES)": "Cc1cc(/C=C/C#N)cc(C)c1-n1cnc2cnc(Nc3ccc(C#N)cc3)nc21", "target or system": "HIV-1", "assay": "viral replication, single-round infection", "test system": "RT mutant E138K", "endpoint": "EC50", "value": "2.1 ± 0.1 nM"}
{"Structure (SMILES)": "COc1cc2c(Nc3ccc(NC(=O)c4ccccc4)cc3)ncnc2cc1OCCCN1CCOCC1", "target or system": "DLD-1", "setting": "concentration not given, 1 h", "how to read": "relative to: untreated", "endpoint": "kinetochore BubR1 level", "value": "~10%"}
{"Structure (SMILES)": "C=C(C)C[C@H](OC)[C@H](O)C(=O)N[C@@H](OC)[C@@H]1CC(=O)C(C)(C)[C@@H](C[C@H](O)[C@@H](C)[C@H]2Cc3c(C)c(O)cc(O)c3C(=O)O2)O1", "target or system": "A2058", "assay": "cell growth or viability", "endpoint": "IC50", "value": "0.5 nM"}
{"Structure (SMILES)": "Nc1c(C(=O)NCc2ccc(F)cc2F)c(=O)n(O)c2ncccc12", "target or system": "HIV-1 vector with IN T66I", "assay": "single-round infectivity", "endpoint": "EC50", "value": "0.6 ± 0.3 nM"}
{"Structure (SMILES)": "CC[C@H](C)[C@@H]1NC(=O)[C@@H](NC(=O)[C@H](CO)NC(=O)[C@@H](N)CCCNC(=N)N)CSSC[C@@H](C(=O)N[C@@H](CCCCN)C(N)=O)NC(=O)[C@H]([C@@H](C)O)NC(=O)CNC(=O)[C@@H]2CSSC[C@@H]3NC(=O)[C@H](CCC(N)=O)NC(=O)[C@H](Cc4ccccc4)NC(=O)[C@H](C)NC(=O)[C@H]([C@@H](C)O)NC(=O)[C@H](CSSC[C@H](NC(=O)[C@H](Cc4ccccc4)NC(=O)[C@H](CO)NC(=O)[C@H](CC(C)C)NC(=O)[C@H](CCCNC(=N)N)NC(=O)[C@H](Cc4ccc(O)cc4)NC(=O)[C@H](CCCCN)NC(=O)[C@H](CCSC)NC(=O)[C@H](CO)NC(=O)[C@H](Cc4c[nH]cn4)NC(=O)[C@H](CCCCN)NC3=O)C(=O)N[C@@H](CCCNC(=N)N)C(=O)N[C@@H](CCCCN)C(=O)N[C@@H]([C@@H](C)O)C(=O)N2)NC(=O)[C@H](CCCNC(=N)N)NC(=O)[C@H](CO)NC(=O)[C@H](CCCCN)NC(=O)[C@@H]2CCCN2C(=O)[C@H]([C@@H](C)CC)NC(=O)[C@H]([C@@H](C)O)NC(=O)[C@H](CC(=O)O)NC1=O", "target or system": "human T-lymphocyte", "assay": "lymphocyte proliferation, inhibitor, thymidine uptake", "endpoint": "IC50", "value": "~3 nM"}
{"Structure (SMILES)": "CCCCCCCCCCCCCCCC(=O)N[C@@H](CCC(=O)NCCOCCOCCC(=O)NCCOCCOCCC(=O)NCCCC[C@H](NC(=O)[C@H](CC(=O)O)NC(=O)[C@H](CC(C)C)NC(=O)[C@H](Cc1ccc(O)cc1)NC(=O)[C@H](CCCCN)NC(=O)[C@H](CO)NC(=O)[C@H](Cc1ccc(O)cc1)NC(=O)[C@H](CC(=O)O)NC(=O)[C@H](CO)NC(=O)[C@@H](NC(=O)[C@H](Cc1ccccc1)NC(=O)[C@@H](NC(=O)CNC(=O)[C@H](CCC(N)=O)NC(=O)[C@@H](CO)NC(=O)[C@@H](N)Cc1c[nH]cn1)[C@@H](C)O)[C@@H](C)O)C(=O)N[C@@H](CCCNC(=N)N)C(=O)N[C@@H](CCCNC(=N)N)C(=O)N[C@@H](C)C(=O)N[C@@H](CCC(N)=O)C(=O)N[C@@H](CC(=O)O)C(=O)N[C@@H](Cc1ccccc1)C(=O)N[C@H](C(=O)N[C@@H](CCC(N)=O)C(=O)N[C@@H](Cc1c[nH]c2ccccc12)C(=O)N[C@@H](CC(C)C)C(=O)N[C@@H](CC(C)C)C(=O)N[C@@H](CC(N)=O)C(=O)N[C@H](C(=O)NCC(=O)NCC(=O)N1CCC[C@H]1C(=O)N[C@@H](CO)C(=O)N[C@@H](CO)C(=O)NCC(=O)N[C@@H](C)C(=O)N1CCC[C@H]1C(=O)N1CCC[C@H]1C(=O)N1CCC[C@H]1C(=O)N[C@@H](CO)C(N)=O)[C@@H](C)O)C(C)C)C(=O)O", "target or system": "LX-2", "assay": "agonist, Western blot", "setting": "200 µM, 48 h", "endpoint": "α-SMA protein level", "value": "decreased"}
{"Structure (SMILES)": "Cc1cc(/C=C/C#N)cc(C)c1Nc1nc(Nc2ccc(C#N)cc2)ncc1N", "target or system": "HIV-1", "assay": "viral replication, single-round infection", "test system": "RT mutant K101P/V179I", "endpoint": "EC50", "value": "81.4 ± 8.1 nM"}
{"Structure (SMILES)": "CCCCCCCCCCCCCCCC(=O)N[C@@H](CCC(=O)NCCOCCOCCC(=O)NCCOCCOCCC(=O)NCCCC[C@H](NC(=O)[C@H](CC(=O)O)NC(=O)[C@H](CC(C)C)NC(=O)[C@H](Cc1ccc(O)cc1)NC(=O)[C@H](CCCCN)NC(=O)[C@H](CO)NC(=O)[C@H](Cc1ccc(O)cc1)NC(=O)[C@H](CC(=O)O)NC(=O)[C@H](CO)NC(=O)[C@@H](NC(=O)[C@H](Cc1ccccc1)NC(=O)[C@@H](NC(=O)CNC(=O)[C@H](CCC(N)=O)NC(=O)[C@@H](CO)NC(=O)[C@@H](N)Cc1c[nH]cn1)[C@@H](C)O)[C@@H](C)O)C(=O)N[C@@H](CCCNC(=N)N)C(=O)N[C@@H](CCCNC(=N)N)C(=O)N[C@@H](C)C(=O)N[C@@H](CCC(N)=O)C(=O)N[C@@H](CC(=O)O)C(=O)N[C@@H](Cc1ccccc1)C(=O)N[C@H](C(=O)N[C@@H](CCC(N)=O)C(=O)N[C@@H](Cc1c[nH]c2ccccc12)C(=O)N[C@@H](CC(C)C)C(=O)N[C@@H](CCCC)C(=O)N[C@@H](CC(N)=O)C(=O)N[C@H](C(=O)NCC(=O)NCC(=O)N1CCC[C@H]1C(=O)N[C@@H](CO)C(=O)N[C@@H](CO)C(=O)NCC(=O)N[C@@H](C)C(=O)N1CCC[C@H]1C(=O)N1CCC[C@H]1C(=O)N1CCC[C@H]1C(=O)N[C@@H](CO)C(N)=O)[C@@H](C)O)C(C)C)C(=O)O", "target or system": "LX-2", "assay": "agonist, Western blot", "setting": "200 µM, 48 h", "endpoint": "α-SMA protein level", "value": "decreased"}
{"Structure (SMILES)": "COc1ccc(-c2cnnn2-c2cc(OC)c(OC)c(OC)c2)cc1N", "target or system": "U2OS", "assay": "cytotoxicity, nuclei counting", "setting": "24 h", "endpoint": "EC50", "value": "9.68 ± 1.63 nM"}
{"Structure (SMILES)": "CC[C@H](C)[C@H](NC(=O)[C@H](CCCCN)NC(=O)[C@H](CCCCN)NC(=O)[C@H](CC(C)C)NC(=O)[C@H](Cc1c[nH]c2ccccc12)NC(=O)CN)C(=O)NCC(=O)N[C@@H](CCCCN)C(=O)N[C@@H](CCCCN)C(=O)N[C@H](C(=O)N[C@@H](CCC(=O)O)C(=O)N[C@@H](CCCNC(=N)N)C(=O)N[C@H](C(=O)NCC(=O)N[C@@H](CCC(N)=O)C(=O)N[C@@H](Cc1c[nH]cn1)C(=O)N[C@H](C(=O)N[C@@H](CCCNC(=N)N)C(=O)N[C@@H](CC(=O)O)C(=O)N[C@@H](C)C(=O)N[C@H](C(=O)N[C@H](C(=O)N[C@@H](CCC(N)=O)C(=O)N[C@H](C(=O)N[C@H](C(=O)NCC(=O)N[C@H](C(=O)N[C@@H](C)C(=O)N[C@@H](CCC(N)=O)C(=O)N[C@@H](CCC(N)=O)C(=O)N[C@@H](C)C(=O)N[C@@H](C)C(=O)N[C@@H](CC(N)=O)C(=O)N[C@H](C(=O)N[C@@H](C)C(=O)N[C@@H](C)C(=O)N[C@H](C(=O)N[C@@H](CC(C)C)C(=O)N[C@@H](CCCCN)C(N)=O)[C@@H](C)O)C(C)C)C(C)C)[C@@H](C)CC)[C@@H](C)O)[C@@H](C)CC)[C@@H](C)O)[C@@H](C)O)C(C)C)[C@@H](C)CC", "target or system": "Listeria monocytogenes", "test system": "DSM 20600, CAMHB", "endpoint": "MIC", "value": "> 1020 µg/mL"}
{"note": "Excerpt of the above:"}
{"Structure (SMILES)": "COc1ccc(-c2cnnn2-c2cc(OC)c(OC)c(OC)c2)cc1N", "target or system": "U2OS", "assay": "cytotoxicity, nuclei counting", "setting": "24 h", "endpoint": "EC50", "value": "9.68 ± 1.63 nM"}
{"Structure (SMILES)": "CC[C@H](C)[C@H](N)C(=O)N[C@@H](Cc1c[nH]c2ccccc12)C(=O)N[C@@H](CC(C)C)C(=O)N[C@H](C(=O)N[C@@H](C)C(=O)N[C@@H](CC(C)C)C(=O)N[C@@H](CCCCN)C(=O)N[C@@H](Cc1ccccc1)C(=O)N[C@@H](CC(C)C)C(=O)NCC(=O)N[C@@H](CCCCN)C(=O)N[C@@H](Cc1c[nH]cn1)C(=O)N[C@@H](C)C(=O)N[C@@H](C)C(=O)N[C@@H](CCCCN)C(=O)N[C@@H](Cc1c[nH]cn1)C(=O)N[C@@H](CCC(=O)O)C(=O)N[C@@H](C)C(=O)N[C@@H](CCCCN)C(=O)N[C@@H](CCC(N)=O)C(=O)N[C@@H](CCC(N)=O)C(=O)N[C@@H](CC(C)C)C(=O)N[C@@H](CO)C(=O)N[C@@H](CCCCN)C(=O)N[C@@H](CC(C)C)C(=O)N[C@@H](CS)C(N)=O)[C@@H](C)O", "target or system": "human red blood cells", "setting": "pH 5.5", "how to read": "relative to: Triton X-100", "endpoint": "EC50", "value": "> 100000 nM"}
